Measurements gathered from unrelated publications.
Every numbered part comes from another study and shows a few of its results, in no order.

Block 1
Target: Interferon regulatory factor 3, full length, phosphomimetic (IRF3, Homo sapiens, UniProt Q14653, residues 1-427, S386D/S396D/S398D/S402D/T404D/S405D)
Chain of UniProt Q14653 (whole entry, unmodified, looked up): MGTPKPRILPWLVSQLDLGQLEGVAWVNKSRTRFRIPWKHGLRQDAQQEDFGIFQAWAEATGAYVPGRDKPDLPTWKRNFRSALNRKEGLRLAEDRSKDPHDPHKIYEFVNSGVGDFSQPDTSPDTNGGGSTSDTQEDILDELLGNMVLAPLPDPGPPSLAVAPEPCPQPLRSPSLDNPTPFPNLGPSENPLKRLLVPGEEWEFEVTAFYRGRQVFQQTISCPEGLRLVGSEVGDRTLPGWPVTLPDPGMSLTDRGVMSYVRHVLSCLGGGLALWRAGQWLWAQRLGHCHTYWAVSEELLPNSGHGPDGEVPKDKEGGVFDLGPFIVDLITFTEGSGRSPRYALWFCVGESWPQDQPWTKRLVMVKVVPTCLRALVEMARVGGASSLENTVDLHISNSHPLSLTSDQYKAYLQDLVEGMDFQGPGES
Technique: protein-binding microarray
Molecule type: double-stranded DNA, one strand shown
Medium: in vitro
Concentration: 2540 nM top
Setting: 60-bp whole probe
Added: salmon DNA 0.4 mg/ml
Relative to: random background probes
Direction: higher = stronger binding
Shared flanks, not repeated: GCCTAGCAC … GTCTTGATTCGCTTGACGCTGCTG
Sequence | fitted relative affinity [z-score]
CATCATTGCCTGTTTTTCCCCGTGCTA | 0.322
CCCTTTCTCTCTGTGACACAGTGCTAG | 5.3
TTAGATTTCAGTACCGATTAGTGCTAG | 1.81
AGCAGTTGGACCTCTCAGCCAGTGCTA | -1.07
TCATGACACCGATTTCATACTGTGCTA | 0.499
GACGAACTAAGTTTCGAGACGTGCTAG | 2
GACCGACTGGGGACTGGGGACGTGCTA | -0.455
TCATTCCTCTTTCTCTGACTGTGCTAG | 3.09
TTAGAACTGAGTATCGACTAGTGCTAG | -0.289
TTAGATTTTGGGTATCGATTAGTGCTA | 0.159
GTCGGACTGGGGACTGGGGACGTGCTA | -0.539
GACGATATCTGGTATCGAGACGTGCTA | 0.264
TTAGGTTTCCGTCTCCTTTAGTGCTAG | 6.95
TTTGGTTTCGGACTGGGTTAGTGCTAG | 4.74
TTAGACATCGGGTATCGATTAGTGCTA | -0.302
TTAGGACTGTGTTTCGGTTAGTGCTAG | 2.9
TTAGGTTACCTTTTCCTTTAGTGCTAG | 7.54
GACGGTTACGGTTCCGGGACGTGCTAG | 2.33
GACGGACTGGGTTTCGGCACGTGCTAG | 0.437
GCCTTTTTTTTTTTTTCTGAGTGCTAG | 2.12
TCAAGTTTACCCATCTCACTGTGCTAG | 1.28
TTAGAGATCGGGACTGGATTAGTGCTA | -0.339
GAAGCTTCCTCTCTGCCACTGTGCTAG | -0.0375
TCAGGACTGCTTCTCCTTTAGTGCTAG | 0.142
TTGGATTTCAGTCTCGATTAGTGCTAG | 1.73

Block 2
Target: Sal-like protein 4, full length isoform B (SALL4, Homo sapiens, UniProt Q9UJQ4-2, residues 1-616)
Technique: universal PBM
Molecule type: double-stranded DNA, one strand shown
Medium: in vitro
Concentration: not given
Setting: 8-mer, flanks averaged, mean of replicates
Direction: higher = stronger binding
Residues (chain): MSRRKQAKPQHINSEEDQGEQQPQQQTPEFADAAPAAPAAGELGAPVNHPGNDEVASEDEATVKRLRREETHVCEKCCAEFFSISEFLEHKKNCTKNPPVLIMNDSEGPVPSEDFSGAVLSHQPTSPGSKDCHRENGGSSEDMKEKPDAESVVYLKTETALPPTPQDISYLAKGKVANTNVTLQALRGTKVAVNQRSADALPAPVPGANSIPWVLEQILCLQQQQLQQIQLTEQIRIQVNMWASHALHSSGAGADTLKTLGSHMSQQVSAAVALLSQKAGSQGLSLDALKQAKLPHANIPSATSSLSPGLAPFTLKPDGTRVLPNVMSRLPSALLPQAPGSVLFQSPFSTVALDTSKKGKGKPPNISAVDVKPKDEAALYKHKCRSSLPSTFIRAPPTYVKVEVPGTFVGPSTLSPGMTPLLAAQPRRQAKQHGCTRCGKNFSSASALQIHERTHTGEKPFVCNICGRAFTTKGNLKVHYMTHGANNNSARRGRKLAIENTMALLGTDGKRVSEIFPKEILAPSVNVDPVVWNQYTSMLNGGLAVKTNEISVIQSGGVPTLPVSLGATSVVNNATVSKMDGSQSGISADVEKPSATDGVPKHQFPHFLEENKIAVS
Sequence | E-score
TGCCAGAA | -0.0384
CAGAGCCA | -0.106
ACGCGCAC | -0.281
AATTGCCC | 0.0646
ATTGTGCC | 0.0246
CGAAGAGC | -0.143
CGCCTCCG | -0.268
AGCAACGA | 0.032
CTGACCTC | -0.202
CGGTTGGA | -0.209
TACAACGA | 0.167
TCAGATAA | 0.144
GGTCAGCA | -0.111
CTTAACTA | 0.161
AGCACGCT | -0.235
ATCGGCTG | -0.154
AAAGGTGG | -0.0131
CAGCGCCG | -0.381
ACAATGTC | 0.0619
AGTAATAC | 0.189
ACCGTGGG | -0.348
ATCCACAG | 0.0309
GGATTCCA | 0.0227
AGCAAGGG | -0.121
AACACAAA | 0.159

Block 3
Target: Phosphate system positive regulatory protein PHO4, full length, GST-tagged (PHO4, Saccharomyces cerevisiae, UniProt P07270, residues 1-312)
Technique: competition protein-binding microarray
Molecule type: double-stranded DNA, one strand shown
Medium: in vitro
Concentration: 2 µM
Setting: whole 60-bp probe, lowest competitor level
Added: Cbf1 competitor, 0.05 µM
Direction: higher = stronger binding
Shared flanks, not repeated: … GTCTTGATTCGCTTGACGCTGCTG
Residues (chain): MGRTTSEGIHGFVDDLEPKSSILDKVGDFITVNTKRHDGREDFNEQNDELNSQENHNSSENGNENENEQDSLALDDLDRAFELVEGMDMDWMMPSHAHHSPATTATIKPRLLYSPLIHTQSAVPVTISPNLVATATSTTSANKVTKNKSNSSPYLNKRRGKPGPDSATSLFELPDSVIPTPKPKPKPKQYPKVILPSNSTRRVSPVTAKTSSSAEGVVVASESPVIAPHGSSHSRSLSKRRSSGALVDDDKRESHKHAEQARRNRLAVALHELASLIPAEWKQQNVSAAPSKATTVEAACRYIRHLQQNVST
Sequence | fluorescence intensity
CTAACGAAGGTTTGCTCGGTGGGTGACAAGCCAAGT | 3310 a.u.
ATGAATGTTGCGAGTCACGTCTTTTGTCTCGATACC | 5340 a.u.
CTTCTGTAAATTTGTCACGGAACTTGACGCGCCCCG | 3570 a.u.
CGGGGTTAAGTTTGAGGAGTGGGTGGCTTGCAGCAG | 5250 a.u.
AGACGCTAGACCTGCCATGTGGAGATCCGGGGCGGA | 8470 a.u.
ACAACAAAGTCGAGTCACGTTTCTCGCAATTATTAC | 11700 a.u.
AAAATGGAAAAGTTACACGTGGAAGATACAACAACC | 15900 a.u.
CTTCTGTAAATTTGCATAGTGGGTGGACGCGCCCCG | 4160 a.u.
CTTCTGTAAATTTTTCACGTGCGCTGACGCGCCCCG | 13700 a.u.
AAATTACTAAGTTGCGGGGTGGGTGACGCCGTATGA | 3800 a.u.
AGTCTTGTCTGAAACCATGTGGGACACCAAGAAGGA | 9750 a.u.
CGTCCTAGTGATTGTGAGGTGGGTGCCATGAGGAAG | 5870 a.u.
GCGGAAGACGCGCGAAACGTGAAACATTTTGCATGG | 8950 a.u.
CTTTCCCGATCTTTTCACGTGGAATTAGCACATTTG | 13400 a.u.
CGGGGTTAAGTTTGGTCCGTGGGTGGCTTGCAGCAG | 6590 a.u.
CTTCTGTAAATTTGTCACCGCACTTGACGCGCCCCG | 3310 a.u.
CTGTAGTAACAAAAACATGTGGGATGCCAAATTGTA | 12000 a.u.
TAAGAGGAATGGGTGCTCGTGTCCTGGTTACCGAAA | 9080 a.u.
TGCGCAACAACTTGTCACCGCACTTTATGTCTAGAA | 3820 a.u.
AAGTGATGAGAATCGCACGTCTAGATAATGGCAGTA | 5640 a.u.
CTCGAATCGAAAACAAACGTGGCCGTTGGTCCATCA | 12500 a.u.
CTTTCCCGATCTTTTCACGTGGGATTAGCACATTTG | 15100 a.u.
AAATTACTAAGTTTTCACGTGGGTTACCCCGTATGA | 15600 a.u.
GATAAGCTAACGAACCTCATGACGCACAAGGACGAA | 6770 a.u.
CATACCCAACCTTGTCACGGGACTTAAGATATTTGT | 6720 a.u.

Block 4
Target: RNA binding protein fox-1 homolog 2, RRM domain, GST-SBP tag (RBFOX2, Homo sapiens, UniProt O43251-10, residues 100-194)
Technique: RNA Bind-n-Seq
Molecule type: RNA
Medium: in vitro
Concentration: 365 nM
Setting: natural RNA segment, single round, ends assumed
Relative to: no-protein control
Direction: higher = stronger binding
Shared flanks, not repeated: GGGAGUUCUACAGUCCGACGAUC … UGGAAUUCUCGGGUGCCAA
Construct (chain): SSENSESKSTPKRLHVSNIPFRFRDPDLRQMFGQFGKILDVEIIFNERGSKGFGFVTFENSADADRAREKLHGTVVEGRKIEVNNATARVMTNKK
Sequence | RBNS enrichment (R)
UUUGCUUAGGGUAUAUUUUUUCAGUGUCUGAAAGUCAAAGGUAUUCCUGUCACAACUGUAAACAAACUUAUCCUAAAUGUGUUAAAACAUAUUCUUGGGUACUCUAUUUA | 0.428
GACCCCCAGCCAGUAGACAUUGGCUAAGAACACAGAAUCUUCUGACCAAACACGCUUUCAGCAGCUGCCUGCUCUGGACUUUGAAAGAGGUCAGGUCUUGCCCUAAGCUC | 0.323
AUCUCAUUGAUUAUUGACACCUUGAGGUCUGAAGGAUUCCACACUCGAGGAUGCUGACCUAAGCCAGAGCCAUCUAGUUGCCCCUCUGGGCAACUUUGGGAAUUCUGGGA | 0.252
UGGAGCCACCUGGAAGCCACUCCAAUUUGGUGGCACAGGACAGGUUUCCAAGAUGUCACGAGAAAAGCCCCAGAUGUGUACAGCACUCUAAGCAUUAACAGUCUCCCAGA | 0.317
UUAGCACAGUAUAACUUCAUUUUAGGUGUUGGUGAAAAAGAGAAAAUCAGUGGCACUGUUAAUAUCCGCACAAGAGACAAUAAGGUCCACGGGGAACGCACCAUUUCUGA | 0.891
CCAUCCAGUUGUUUCUGGGCUGUGCGAGAGAUCAUACAUUGAUCUGUGUGUGAUGAGUUGAGGGCUUUCCCACCUGCACGGGCCUUCACGGGCUCCACGCUUUUGCUGUC | 0.539
UGUUUUCAAAUAAAUGUAGAUCUUGAGCAUGAUGUGUUCUGUAUAAUUUUAAUAGAUAAUAAUCAUAAAAUAUGUAGAACAUUUUGUCAAUUUGCAAGAUAAGUUAUGGG | 2.09
CUGGAAAUACUUUUUAAAGAAAAAGAAAAACACAAGAAAAAAAUCAGUAUCAGAAGUCAAAGCGAAACAAUACCGUCUGGCACUUAACUCUCAGGUCCCCCACUUAGUCA | 0.754
CUGCUUUUGGUUUUGCUUCUGAUCUUGUGUUCUAAGGUACUCAGUGAAUCCUGGAUUCUGAGUAAGUUCCAGGGUUCUGGCCUUGAAGCCUUGGACUACACACAUUUCAA | 0.406
UAGACCUUAAAACUGUGCUGCCUUAGUGGUAAGUAAGGGGUGGGGGUUGGACAGUGAAUCUUAAGAUUUCAUCCUUCAUUCAGUAAGCAUUUGAGUACCUACUGUGAGCA | 0.434
UGUGAUUGGCUGCCUGUUAGCCCAUCGACUAUUCCCGUCACGGUAGUCCUUACCUCUGUCGGCAGCUCAGAGCCUCCACAUUUUUAUAUUUAAUUCUCAUGAUAAAUUAG | 0.311
UGACAUUCAUUGAGCCAAAAGAGAUGUGGAGAAACAUUUUUCACCUUUCUGUUUGGCCUGAUUAACAUUUAAAUUCUUGCCAAAAUUAAGGUAACUUUUAAAAAACACCU | 0.576

A few entries again (block 1):
Sequence | fitted relative affinity [z-score]
AGCAGTTGGACCTCTCAGCCAGTGCTA | -1.07
TCATGACACCGATTTCATACTGTGCTA | 0.499
GACGAACTAAGTTTCGAGACGTGCTAG | 2
GACCGACTGGGGACTGGGGACGTGCTA | -0.455
TCATTCCTCTTTCTCTGACTGTGCTAG | 3.09
TTAGAACTGAGTATCGACTAGTGCTAG | -0.289
TTAGATTTTGGGTATCGATTAGTGCTA | 0.159
